Assay results of several laboratories.
Protocols differ between the studies behind these lines. “And” joins repeats or separate records; there may be more than shown. ± marks the error that the study gave. In brackets after ≈: the same amount, converted by molar mass.

SMILES | organism | test | test system | conditions | how to read | quantity | result
C[C@H](N)C(=O)NCC(=O)N[C@H]1CSSC[C@@H](C(=O)O)NC(=O)[C@H](CO)NC(=O)[C@H]([C@@H](C)O)NC(=O)[C@H](Cc2ccccc2)NC(=O)[C@H]([C@@H](C)O)NC(=O)[C@H](CCCCN)NC(=O)[C@H](Cc2c[nH]c3ccccc23)NC(=O)[C@H](Cc2ccccc2)NC(=O)[C@H](Cc2ccccc2)NC(=O)[C@H](CC(N)=O)NC(=O)[C@H](CCCCN)NC1=O | Aspergillus fumigatus | Alamar blue |  | 20 µM |  | metabolic activity | 100%
Cc1c2c(nn1C)CSCc1cc(n(C)n1)CSc1cc(c3ccccc3c1)OCCCc1c(C(=O)O)n(C)c3c-2c(Cl)ccc13 | Staphylococcus aureus | label-free proteomics, refers to: tdcB | SA113 | concentration not given | relative to: untreated | log2 fold change | -4.7
C[C@H](NC(=O)[C@H](CCCNC(=N)N)NC(=O)[C@H](Cc1c[nH]c2ccccc12)NC(=O)[C@H](CCCNC(=N)N)NC(=O)[C@H](Cc1c[nH]c2ccccc12)NC(=O)[C@H](Cc1c[nH]c2ccccc12)NC(=O)[C@H](Cc1c[nH]c2ccccc12)NC(=O)[C@H](CCCNC(=N)N)NC(=O)[C@H](Cc1c[nH]c2ccccc12)NC(=O)[C@H](CCCNC(=N)N)NC(=O)CN)C(N)=O | Candida albicans | broth microdilution | SP3876, RPMI 1640-MOPS | 48 h, 30 °C |  | MIC | 8 µM (≈ 13.6 µg/mL)
Cn1cc(-c2ccc3occ(-c4cccc(-c5ccncc5)c4)c3n2)cn1 | murine hepatitis virus | viral replication, nanoluciferase reporter | DBT | 1 µM, 10 h | relative to: DMSO vehicle | inhibition | 2%
CC(=O)O[C@H]1C[C@H](O[C@H]2[C@@H](O)C[C@H](O[C@H]3[C@@H](O)C[C@H](O[C@H]4CC[C@@]5(C)[C@H](CC[C@@H]6[C@@H]5C[C@@H](O)[C@]5(C)[C@@H](C7=CC(=O)OC7)CC[C@]65O)C4)O[C@@H]3C)O[C@@H]2C)O[C@H](C)[C@H]1O[C@@H]1O[C@H](CO)[C@@H](O)[C@H](O)[C@H]1O | human alphaherpesvirus 1 |  | K26 GFP, 3D skin equivalent, submerged |  | relative to: CC50 over IC50 | selectivity index | 27.7
Nc1ncnc2c1ncn2[C@@H]1O[C@@H]2COP(=O)(O)O[C@H]3[C@@H](O)[C@H](n4cnc5c(=O)[nH]cnc54)O[C@@H]3COP(=O)(O)O[C@H]2[C@H]1O | West Nile virus | RNA sequencing, refers to: interactions, butyrophilin family, R-HSA-8851680 | HFF-1 cells | concentration not given, upregulated pathway | relative to: WNV-infected untreated cells | fold enrichment | 10.2
CNCC(=O)N[C@@H](CO)C(=O)N[C@H]1[C@H](O)[C@@H](O)[C@H](n2ccc(N)nc2=O)O[C@@H]1C(N)=O | Tobacco mosaic virus | in vivo |  | 500 µg/mL |  | inactivation activity | 78% and 86%
CC(=O)C1=CC[C@H]2[C@@H]3C=CC4=CC(=O)CC[C@]4(C)[C@H]3C[C@@H](O)[C@]12C | Leishmania mexicana | parasite growth, propidium iodide flow cytometry | promastigotes | 48 h |  | IC50 | 26.2 µM
O=C1Nc2ccc(I)cc2/C1=C/c1cc(Br)c(O)c(Br)c1 | murine hepatitis virus | viral replication, nanoluciferase reporter | DBT | 1 µM | relative to: DMSO vehicle | inhibition | 35%
CNCC(=O)N[C@@H](CO)C(=O)N[C@H]1[C@H](O)[C@@H](O)[C@H](n2ccc(N)nc2=O)O[C@@H]1C(N)=O | Tobacco mosaic virus | curative activity | plant in vivo |  |  | EC50 | 331 ± 2.8 µg/mL (≈ 746 µM)
CC[C@H](C)[C@H](NC(=O)[C@H](C)NC(=O)[C@H](CCCCN)NC(=O)[C@H](CC(C)C)NC(=O)[C@H](C)NC(=O)[C@@H](NC(=O)[C@H](Cc1c[nH]cn1)NC(=O)[C@H](CC(C)C)NC(=O)[C@@H](NC(=O)[C@@H](NC(=O)[C@H](CCCCN)NC(=O)[C@H](C)NC(=O)[C@H](C)NC(=O)[C@H](CO)NC(=O)[C@H](CCCCN)NC(=O)[C@H](Cc1ccccc1)NC(=O)[C@@H](NC(=O)[C@H](CCCCN)NC(=O)[C@H](CC(C)C)NC(=O)[C@H](Cc1ccccc1)NC(=O)[C@H](CO)NC(=O)[C@H](CCCCN)NC(=O)[C@H](Cc1c[nH]c2ccccc12)NC(=O)[C@H](CCCCN)NC(C)=O)[C@@H](C)O)[C@@H](C)O)C(C)C)[C@@H](C)O)C(=O)N[C@@H](CO)C(=O)N[C@@H](CO)C(N)=O | Enterobacter cloacae |  |  | 40 strains |  | MIC90 | 16 µg/mL (≈ 5.45 µM)
CS(=O)(=O)CCCn1c(Cn2c(=O)n(CC(F)(F)F)c3ccncc32)cc2cc(Cl)ccc21 | respiratory syncytial virus | RT-qPCR | hospitalized infants 1-24 months, nasal swab | oral, 2, 1.5 or 1 mg/kg daily, day 3, low dose by age cohort | relative to: baseline | LS mean viral load change | -2.56 log10 copies/mL
CS(=O)(=O)N1CCCC(NC(=O)[C@H](CCC2CCCCC2)NC(=O)c2ccc(CNc3ncnc4c3nnn4-c3ccccc3)cc2)C1 (some centres unmarked) | murine hepatitis virus | viral replication, nanoluciferase reporter | DBT | 1 µM, 10 h | relative to: DMSO vehicle | inhibition | 0%
CC(C)COC(=O)c1ccc2c(c1)/C(=C/Nc1ccc(S(N)(=O)=O)cc1)C(=O)N2 | Aspergillus fumigatus |  |  | 20 µM | relative to: untreated | metabolic activity | ≥ 80%
CN1CCC(COc2cnc(-c3cccc(Cn4nc(-c5cccc(C#N)c5)ccc4=O)c3)nc2)CC1 | murine hepatitis virus | viral replication, nanoluciferase reporter | DBT | 1 µM, 10 h | relative to: DMSO vehicle | inhibition | 27%
Nc1ccn(C[C@@H](CO)OCP(=O)(O)O)c(=O)n1 | varicella-zoster virus |  | HFF, Ellen |  | relative to: CC50 over EC50 | selectivity index | 115
O=C(NCCN1CCOCC1)c1ccc2c(c1)C(=O)c1ccc(Nc3ccc(F)c(NC(=O)c4ccccc4)c3)cc1CC2 | murine hepatitis virus | viral replication, nanoluciferase reporter | DBT | 1 µM, 10 h | relative to: DMSO vehicle | inhibition | 0%
O=[N+]([O-])c1cc2cc3ccc4oc([N+](=O)[O-])cc4c3cc2o1 | Enterobacter cloacae | REMA |  |  |  | MIC90 | > 32 µg/mL
CO/N=C(\C(=O)N[C@@H]1C(=O)N2C(C(=O)O)=C(CSC(=O)c3ccco3)CS[C@H]12)c1csc(N)n1 | Staphylococcus aureus |  | CAAS-2019-19 clinical blaZ-resistant isolate, PBS |  |  | MBC | 32 µg/mL
CC1=C(C(=O)Nc2cc3cn[nH]c3cc2F)C(c2ccc(C(F)(F)F)cc2)CC(=O)N1 (centres unmarked) | murine hepatitis virus | viral replication, nanoluciferase reporter | DBT | 1 µM, 10 h | relative to: DMSO vehicle | inhibition | 18%
C[C@H](NC(=O)[C@H](CCCNC(=N)N)NC(=O)[C@H](Cc1c[nH]c2ccccc12)NC(=O)[C@H](CCCNC(=N)N)NC(=O)[C@H](Cc1c[nH]c2ccccc12)NC(=O)[C@H](Cc1c[nH]c2ccccc12)NC(=O)[C@H](Cc1c[nH]c2ccccc12)NC(=O)[C@H](CCCNC(=N)N)NC(=O)[C@H](Cc1c[nH]c2ccccc12)NC(=O)[C@@H](N)CCCNC(=N)N)C(N)=O | Candida albicans | broth microdilution | CGMCC 2.209, RPMI 1640-MOPS | 48 h, 30 °C, together with: ZnCl2 8 µM |  | MIC | 8 µM (≈ 13.2 µg/mL)
CCCC(CCC)C(=O)Nc1ccccc1O | Artemia franciscana | LC-MS/MS metabolomics, refers to: 1-aminocyclopropanecarboxylic acid | larvae | concentration not given, 24 h, LC10 concentration | relative to: vehicle | log2 fold change | 0.742
COc1cc(Nc2ncc3c(n2)-c2ccc(Cl)cc2C(c2c(F)cccc2OC)=NC3)ccc1C(=O)O | murine hepatitis virus | viral replication, nanoluciferase reporter | DBT | 1 µM, 10 h | relative to: DMSO vehicle | inhibition | 16%
CC(=O)N1CCN(c2ccc(OCC3COC(Cn4ccnc4)(c4ccc(Cl)cc4Cl)O3)cc2)CC1 (centres unmarked) | Candida parapsilosis |  | CGMCC 2.399 | 48 h, 30 °C |  | MFC | 32 µM (≈ 17 µg/mL)
Nc1c([N+](=O)[O-])oc2ccc3ccccc3c12 | Mycobacterium avium subsp. hominissuis | REMA | ATCC 25291 |  |  | MIC90 | > 32 µg/mL
Cn1c(=O)ccc2ccc(F)c(CCNC[C@H]3CN(c4cnc5c(n4)NC(=O)CO5)C(=O)O3)c21 | Helicobacter pylori |  |  |  |  | MIC50 | < 0.015 µg/mL

A few entries again:
SMILES | organism | test | test system | conditions | how to read | quantity | result
O=C(NCCN1CCOCC1)c1ccc2c(c1)C(=O)c1ccc(Nc3ccc(F)c(NC(=O)c4ccccc4)c3)cc1CC2 | murine hepatitis virus | viral replication, nanoluciferase reporter | DBT | 1 µM, 10 h | relative to: DMSO vehicle | inhibition | 0%
O=[N+]([O-])c1cc2cc3ccc4oc([N+](=O)[O-])cc4c3cc2o1 | Enterobacter cloacae | REMA |  |  |  | MIC90 | > 32 µg/mL
